# Measured values gathered from unrelated publications.
# CA9: Carbonic anhydrase 9 (CA9, Homo sapiens, UniProt Q16790)
# PIK3CD: Phosphatidylinositol 4,5-bisphosphate 3-kinase catalytic subunit delta isoform (PIK3CD, Homo sapiens, UniProt O00329)
# Chain of UniProt O00329 (whole entry, looked up): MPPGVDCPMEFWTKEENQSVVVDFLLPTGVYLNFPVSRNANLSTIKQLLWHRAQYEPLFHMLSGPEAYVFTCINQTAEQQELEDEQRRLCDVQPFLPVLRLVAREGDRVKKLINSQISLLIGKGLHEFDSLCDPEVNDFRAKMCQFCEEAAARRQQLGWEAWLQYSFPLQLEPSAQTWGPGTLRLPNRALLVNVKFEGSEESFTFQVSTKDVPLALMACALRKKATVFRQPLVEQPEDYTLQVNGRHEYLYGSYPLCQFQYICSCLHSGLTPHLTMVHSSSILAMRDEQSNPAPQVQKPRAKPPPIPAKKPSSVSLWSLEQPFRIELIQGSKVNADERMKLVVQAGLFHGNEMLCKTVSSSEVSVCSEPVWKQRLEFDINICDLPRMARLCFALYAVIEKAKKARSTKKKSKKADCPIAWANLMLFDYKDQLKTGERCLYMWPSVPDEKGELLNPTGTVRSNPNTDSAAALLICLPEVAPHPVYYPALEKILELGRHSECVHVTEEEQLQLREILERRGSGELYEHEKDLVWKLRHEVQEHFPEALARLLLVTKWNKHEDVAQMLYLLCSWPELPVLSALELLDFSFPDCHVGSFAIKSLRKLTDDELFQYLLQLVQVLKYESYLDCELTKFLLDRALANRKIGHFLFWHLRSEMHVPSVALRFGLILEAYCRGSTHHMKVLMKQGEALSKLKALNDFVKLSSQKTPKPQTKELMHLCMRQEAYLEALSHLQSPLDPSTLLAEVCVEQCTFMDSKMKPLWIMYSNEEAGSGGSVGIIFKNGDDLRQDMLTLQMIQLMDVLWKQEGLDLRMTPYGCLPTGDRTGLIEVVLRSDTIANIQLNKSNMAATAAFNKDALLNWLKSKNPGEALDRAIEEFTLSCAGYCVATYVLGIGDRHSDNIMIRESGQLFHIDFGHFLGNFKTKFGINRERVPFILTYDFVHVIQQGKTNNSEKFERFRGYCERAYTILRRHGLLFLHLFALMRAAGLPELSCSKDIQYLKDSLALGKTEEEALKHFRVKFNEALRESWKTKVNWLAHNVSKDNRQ
# Chain of UniProt P48147 (whole entry, looked up): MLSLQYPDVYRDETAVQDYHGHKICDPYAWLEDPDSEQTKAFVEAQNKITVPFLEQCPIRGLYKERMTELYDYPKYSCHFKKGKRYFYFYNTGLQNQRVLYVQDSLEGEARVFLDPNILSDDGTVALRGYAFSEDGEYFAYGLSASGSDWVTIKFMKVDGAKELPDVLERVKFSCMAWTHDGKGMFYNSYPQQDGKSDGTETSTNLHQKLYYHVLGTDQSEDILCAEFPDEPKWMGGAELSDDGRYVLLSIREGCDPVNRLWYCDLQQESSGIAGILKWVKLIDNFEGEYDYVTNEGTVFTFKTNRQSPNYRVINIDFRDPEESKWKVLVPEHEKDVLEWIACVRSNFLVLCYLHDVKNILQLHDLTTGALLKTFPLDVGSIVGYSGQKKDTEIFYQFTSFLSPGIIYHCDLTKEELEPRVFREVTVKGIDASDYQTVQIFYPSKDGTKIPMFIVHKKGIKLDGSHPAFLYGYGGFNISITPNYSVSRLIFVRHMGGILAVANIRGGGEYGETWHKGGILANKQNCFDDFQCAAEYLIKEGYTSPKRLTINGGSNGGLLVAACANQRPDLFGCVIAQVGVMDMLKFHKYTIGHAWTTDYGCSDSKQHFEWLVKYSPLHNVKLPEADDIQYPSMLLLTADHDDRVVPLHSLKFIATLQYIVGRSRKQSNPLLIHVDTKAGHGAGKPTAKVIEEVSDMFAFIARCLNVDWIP
# Chain of UniProt P70658 (whole entry, looked up): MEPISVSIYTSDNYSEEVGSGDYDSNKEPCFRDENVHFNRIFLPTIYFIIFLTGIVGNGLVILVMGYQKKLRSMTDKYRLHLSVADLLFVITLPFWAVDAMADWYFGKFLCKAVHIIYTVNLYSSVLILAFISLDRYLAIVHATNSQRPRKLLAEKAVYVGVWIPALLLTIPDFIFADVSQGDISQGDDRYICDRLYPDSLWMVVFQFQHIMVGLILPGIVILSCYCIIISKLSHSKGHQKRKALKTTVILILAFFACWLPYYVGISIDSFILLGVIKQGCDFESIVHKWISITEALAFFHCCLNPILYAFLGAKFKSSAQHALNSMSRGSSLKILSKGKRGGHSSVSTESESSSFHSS
# Chain of UniProt O14757 (whole entry, looked up): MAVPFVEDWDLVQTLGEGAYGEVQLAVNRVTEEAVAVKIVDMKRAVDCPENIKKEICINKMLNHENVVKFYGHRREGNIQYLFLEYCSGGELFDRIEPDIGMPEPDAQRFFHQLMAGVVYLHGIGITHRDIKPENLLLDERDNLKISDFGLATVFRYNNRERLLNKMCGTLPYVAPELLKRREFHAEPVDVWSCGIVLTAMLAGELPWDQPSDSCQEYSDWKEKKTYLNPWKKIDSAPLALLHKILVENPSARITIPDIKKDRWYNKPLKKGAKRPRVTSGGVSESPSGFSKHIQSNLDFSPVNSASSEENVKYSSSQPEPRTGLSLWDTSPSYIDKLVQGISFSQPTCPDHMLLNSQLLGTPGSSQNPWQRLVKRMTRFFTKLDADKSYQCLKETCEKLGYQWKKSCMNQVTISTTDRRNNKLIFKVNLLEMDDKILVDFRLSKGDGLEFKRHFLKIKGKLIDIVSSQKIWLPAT
# Chain of UniProt Q63707 (whole entry, looked up): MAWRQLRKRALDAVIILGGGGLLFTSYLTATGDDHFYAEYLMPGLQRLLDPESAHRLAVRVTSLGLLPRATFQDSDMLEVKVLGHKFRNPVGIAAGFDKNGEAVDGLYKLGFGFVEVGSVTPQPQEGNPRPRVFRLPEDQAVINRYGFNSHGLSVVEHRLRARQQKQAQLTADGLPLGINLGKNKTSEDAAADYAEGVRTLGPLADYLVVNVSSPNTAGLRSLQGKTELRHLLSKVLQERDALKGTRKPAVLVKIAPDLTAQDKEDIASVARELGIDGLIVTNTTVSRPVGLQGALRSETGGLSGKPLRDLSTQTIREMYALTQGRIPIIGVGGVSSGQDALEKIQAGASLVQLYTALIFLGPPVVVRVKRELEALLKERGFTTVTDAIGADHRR
# Chain of UniProt P33261 (whole entry, looked up): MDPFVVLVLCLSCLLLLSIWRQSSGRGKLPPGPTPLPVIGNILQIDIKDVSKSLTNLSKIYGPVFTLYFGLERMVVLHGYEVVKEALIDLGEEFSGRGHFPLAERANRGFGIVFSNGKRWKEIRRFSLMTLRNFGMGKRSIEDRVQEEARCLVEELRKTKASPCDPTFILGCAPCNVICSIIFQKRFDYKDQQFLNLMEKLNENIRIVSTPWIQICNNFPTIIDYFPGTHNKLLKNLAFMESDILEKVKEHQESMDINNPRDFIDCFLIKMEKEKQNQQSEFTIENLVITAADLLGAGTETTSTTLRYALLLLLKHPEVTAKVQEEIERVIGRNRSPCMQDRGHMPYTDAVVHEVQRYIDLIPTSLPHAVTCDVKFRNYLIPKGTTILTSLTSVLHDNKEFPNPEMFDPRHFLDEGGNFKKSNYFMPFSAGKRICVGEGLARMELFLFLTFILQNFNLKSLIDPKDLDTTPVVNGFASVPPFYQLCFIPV
SMILES,target,assay,test system,setting,IC50
COc1ccc(COc2cc3c(cc2OC)-c2n[nH]c(-c4ccc(Br)cc4)c2C3)cc1,"CHEK1 (Homo sapiens, UniProt O14757)","enzyme activity, inhibitor",,,> 10000 nM
NCCCCN(Cc1nc2ccccc2[nH]1)[C@H]1CCCc2cccnc21,"C-X-C chemokine receptor type 4 (Mus musculus, UniProt P70658)","ligand displacement in cells, flow cytometry",,,4.88 nM
CC[C@@](N)(c1cnc(C(F)(F)F)c(Cl)c1)c1c2ncn(C3CC3)c(=O)c2nn1C,"CYP2C19 (Homo sapiens, UniProt P33261)","enzyme activity, inhibitor","human, liver microsomes",pH 7.4,> 20000 nM
CC1CCCN(c2cc(C(=O)N3CCN(c4ccc(S(N)(=O)=O)cc4)CC3)ccn2)C1 (stereo not drawn),CA9,"enzyme activity, inhibitor",,,84 nM
CCc1ccc(N=C2C(=O)N(Cc3ccccc3)c3ccccc32)cc1,PIK3CD,"enzyme activity, inhibitor, ADP detection",,,92.4 nM
CC(NCC1(c2ccc(-c3cn(C)nn3)cc2)CCOCC1)C(=O)Nc1ccc(S(N)(=O)=O)cc1 (stereo not drawn),CA9,"enzyme activity, inhibitor",,,100 nM
FC(F)(F)C1CCCN(c2nccc(-c3cnn4ncccc34)n2)C1 (stereo not drawn),"DYRK1A (Homo sapiens, UniProt Q13627)","cell-free assay, TR-FRET",,,398 nM
NS(=O)(=O)c1ccc(CNC(=S)N(Cc2ccc(S(N)(=O)=O)cc2)CC(F)(F)F)cc1,CA9,"enzyme activity, inhibitor",,,19.1 nM
Cn1nc2c(=O)n(C3CC3)cnc2c1[C@](O)(c1cnc(C(F)(F)F)c(Cl)c1)C(F)(F)F,"Dihydroorotate dehydrogenase (quinone), mitochondrial (Rattus norvegicus, UniProt Q63707)","enzyme activity, inhibitor, absorbance",,,> 30000 nM
CN(C)C(=O)c1cc2cnc(Nc3cccc(-c4cccc5c(=O)cc(N6CCOCC6)oc45)c3)nc2n1C1CCCC1,PIK3CD,"enzyme activity, inhibitor, radiometric",,,800 nM
Cc1nn(C)c2ncc(C(=O)NCC3CC(Br)=NO3)c(Cl)c12 (stereo not drawn),"PREP (Homo sapiens, UniProt P48147)","enzyme activity, inhibitor, fluorescence",,,~500000 nM
COc1ccc(C(=O)NCc2ccc(O)c(O)c2)cc1,"Replicase polyprotein 1ab, main protease (rep, Porcine epidemic diarrhea virus, UniProt P0C6Y4)","enzyme activity, inhibitor, FRET",,,11200 nM
